Measured values gathered from unrelated publications.
Each numbered part is a random draw from the data of one study; scales do not carry over between parts. Changes are numbered by the printed parent chain.

Sample 1 — target: CCNE1, cyclin fold, Cln2 fusion (human); method: yeast growth competition, sequencing; sample: yeast; notes: weak parent motif; reference: not given; reading: higher = stronger binding
Parent: SLBP docking peptide (human); ARYKRKLLINDFG
Change | normalised enrichment score
ARYKEKLLINDFG [R5E] | 0.618
ARYKRLLLINDFG [K6L] | 0.924
HRYKRKLLINDFG [A1H] | 0.724
ARYTRKLLINDFG [K4T] | -0.702
ARSKRKLLINDFG [Y3S] | 1.3
AEYKRKLLINDFG [R2E] | 0.735
ARYKRKLLIVDFG [N10V] | 0.403
ARYKAKALINDFG [R5A L7A] | 0.0976
ARAKRKLLINDFG [Y3A] | 1.22
ARYKRKLLINDFI [G13I] | 0.29
ARYKRKLLINDYG [F12Y] | 1.04
ARYKRKLLINDNG [F12N] | 0.134
ARYKRHLLINDFG [K6H] | -0.428
ARYKRKLLIFDFG [N10F] | 1.13

Sample 2 — method: RNA Bind-n-Seq; molecule type: RNA; sample: in vitro; tested at: 20 nM; notes: 6-mer, flanks averaged, single round; together with: 150 mM LiCl; reference: input library; reading: higher = stronger binding
Target: TAR DNA-binding protein 43, full length, His tag (TARDBP, Homo sapiens, UniProt Q13148, residues 1-414)
Strand | 6-mer enrichment (R)
UGUAUC | 0.959
GGAGAC | 0.957
AACUAC | 0.837
CAAGGU | 0.897
GCCUCC | 1
CCUUGC | 1.1
ACUUCA | 0.826
CCCUAU | 1.08
GUAAAG | 0.948
CCUCCG | 0.953
GCGUCA | 0.929
CAACCA | 0.856
AGUGGG | 1.35
CCUCGA | 0.853
GUCCGA | 0.892

Sample 3 — method: universal PBM; molecule type: double-stranded DNA, one strand shown; sample: in vitro; tested at: 600 nM; reading: higher = stronger binding
Target: Sal-like protein 4, full length isoform A (SALL4, Homo sapiens, UniProt Q9UJQ4, residues 1-1053)
UniProt Q9UJQ4, sequence (whole entry, looked up): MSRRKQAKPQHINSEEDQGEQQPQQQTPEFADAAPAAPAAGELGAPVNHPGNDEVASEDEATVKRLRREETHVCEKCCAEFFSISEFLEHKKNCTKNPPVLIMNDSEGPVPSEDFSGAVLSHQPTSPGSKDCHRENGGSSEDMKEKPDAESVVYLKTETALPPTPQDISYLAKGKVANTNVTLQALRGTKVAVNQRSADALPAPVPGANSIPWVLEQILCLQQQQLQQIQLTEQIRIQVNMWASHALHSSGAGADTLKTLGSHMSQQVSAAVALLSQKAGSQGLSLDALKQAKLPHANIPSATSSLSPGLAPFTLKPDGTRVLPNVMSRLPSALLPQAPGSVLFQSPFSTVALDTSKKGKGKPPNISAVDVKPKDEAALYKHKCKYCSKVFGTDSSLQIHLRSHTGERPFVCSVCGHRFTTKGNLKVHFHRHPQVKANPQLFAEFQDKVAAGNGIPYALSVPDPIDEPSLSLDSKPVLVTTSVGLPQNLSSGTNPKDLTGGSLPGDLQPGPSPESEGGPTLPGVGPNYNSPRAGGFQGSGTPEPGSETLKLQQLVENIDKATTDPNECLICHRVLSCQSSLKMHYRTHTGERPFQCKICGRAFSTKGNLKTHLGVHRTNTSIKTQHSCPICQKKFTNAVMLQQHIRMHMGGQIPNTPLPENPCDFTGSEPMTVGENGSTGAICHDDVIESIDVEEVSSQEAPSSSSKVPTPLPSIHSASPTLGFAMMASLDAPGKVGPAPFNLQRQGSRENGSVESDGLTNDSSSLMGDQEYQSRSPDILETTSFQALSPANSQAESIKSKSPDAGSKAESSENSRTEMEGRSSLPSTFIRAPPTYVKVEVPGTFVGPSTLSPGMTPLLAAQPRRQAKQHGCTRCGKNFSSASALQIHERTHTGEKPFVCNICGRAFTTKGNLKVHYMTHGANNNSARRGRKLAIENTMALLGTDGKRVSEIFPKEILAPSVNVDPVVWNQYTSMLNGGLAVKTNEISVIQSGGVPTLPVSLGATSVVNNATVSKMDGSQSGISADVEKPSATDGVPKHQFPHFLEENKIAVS
Notes: 8-mer, flanks averaged, mean of replicates
Strand | E-score
AATAGAGG | 0.0319
AGGGAGGA | -0.125
CGTGATTC | 0.0286
AACTGTCA | 0.0989
AGAATCTC | 0.0228
AACTGACG | -0.046
CGGGATGC | -0.347
CTTAGTTA | 0.137
TCAGCCAA | -0.0384
CGCGTTAC | -0.0532
AAGGCAAA | 0.183
CTCGGAGA | -0.154
AGCGAATG | -0.16
ATGGGGAC | -0.143
ACGAACAG | -0.078
CCAAATGC | -0.136
ATGTGCCA | 0.0491
AGATCTCA | 0.0198

Sample 4 — method: aptamer microarray, sandwich; molecule type: DNA with 2'F-ANA; sample: in vitro; tested at: 200 nM; together with: Cy3 exosite-II aptamer, 400 nM; reading: higher = stronger binding; strand: GGTTGGTGTGGTTGG
Target: Prothrombin, mature alpha-thrombin (F2, Homo sapiens, UniProt P00734)
Notes: whole 15-mer aptamer, many near background
Modification | mean fluorescence intensity
2'F-ANA at 3 7 8 10 12 13 | 730 a.u.
2'F-ANA at 1 3 8 9 10 13 14 15 | 58.2 a.u.
2'F-ANA at 1 4 6 7 11 12 13 14 | 58.9 a.u.
2'F-ANA at 2 5 8 10 11 12 14 | 46.5 a.u.
2'F-ANA at 1 2 4 6 9 10 11 12 13 15 | 54.7 a.u.
2'F-ANA at 3 5 7 10 13 15 | 58.7 a.u.
2'F-ANA at 4 5 7 8 9 10 13 | 84.1 a.u.
2'F-ANA at 1 4 8 9 10 11 12 13 15 | 73.6 a.u.
2'F-ANA at 1 4 7 12 13 | 212 a.u.
2'F-ANA at 2 3 4 10 15 | 284 a.u.
2'F-ANA at 3 4 6 8 10 15 | 230 a.u.
2'F-ANA at 2 6 10 11 14 | 80.7 a.u.
2'F-ANA at 5 9 | 87.9 a.u.
2'F-ANA at 1 2 4 6 7 8 10 11 | 68.6 a.u.
2'F-ANA at 1 2 4 6 7 9 10 11 14 | 50.5 a.u.
2'F-ANA at 1 2 3 6 11 | 177 a.u.
2'F-ANA at 1 2 4 8 10 15 | 65.7 a.u.
2'F-ANA at 1 2 3 5 7 8 9 11 | 58.6 a.u.
2'F-ANA at 1 6 7 9 10 11 13 | 54.7 a.u.
2'F-ANA at 2 3 4 5 6 8 9 12 13 14 | 51.6 a.u.
2'F-ANA at 1 4 6 7 8 9 11 12 15 | 235 a.u.
2'F-ANA at 1 2 4 6 7 10 11 14 15 | 48.7 a.u.
2'F-ANA at 1 3 5 8 9 10 11 13 14 | 46.9 a.u.

Sample 5 — method: RNA Bind-n-Seq; molecule type: RNA; sample: in vitro; tested at: 200 nM; notes: whole 134-nt RNA, ends assumed; together with: 150 mM LiCl; reference: input library; reading: higher = stronger binding; all molecules: 7-deaza-guanosine replaces G
Target: Fragile X messenger ribonucleoprotein 1, C-terminal low-complexity region (Fmr1, Mus musculus, UniProt P35922)
Strand | log2 enrichment
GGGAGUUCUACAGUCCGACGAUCCACAGACAACACGCACCCACACAGACACAGAGGGAAGGGGUUCGGAUGGGGACAGGGUGCACAGCAGGGCGGGGUAGGACCCCAGCCCCUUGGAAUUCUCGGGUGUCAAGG | -0.398
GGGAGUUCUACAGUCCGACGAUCCCUGUGCUACACAUCGUAUGUACCGAAUCGGCCCCCCCGGCCCCCCCGGGCCCCCCCGGGGAAAGUAUUAUGUUACGCCGUUCGGAUCUGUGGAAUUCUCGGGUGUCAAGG | 0.768
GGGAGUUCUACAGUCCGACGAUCCCUGUGCUACACAUCGUAUGUACCGAAUCGGGGCCCCCCGGGGCCCCCCGGGGCCCCCCGGAAAGUAUUAUGUUACGCCGUUCGGAUCUGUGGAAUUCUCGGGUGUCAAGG | -2.63
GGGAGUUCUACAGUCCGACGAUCCACAGACAACACGCACCCACACAGACACAGAAGGAAGGGGUUGGGAUGGGGACAGGGUGCACAGCAGGGCGGGGUAGGACCCCAGCCCCUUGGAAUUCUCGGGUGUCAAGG | 0.533
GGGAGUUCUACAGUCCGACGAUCGCAGGAAGUAAAAAGAAAUGGAAAUGCUUCGGAUAGUGGCAGGGGUGGGGGUUGCUAAGGAAAGGGUGGGAUGGGAGUGGGUAAAGAGUUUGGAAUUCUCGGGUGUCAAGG | 1.05
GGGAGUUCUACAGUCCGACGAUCACCAUGCAGGUGGGCAUCUUUGGGAAGUGGGGCAAGGGGGGGAUAGGGAGGGGGGUAACACUUUGGGAACAGGUGGUCCCAGCUCGUUUCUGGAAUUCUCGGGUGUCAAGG | 0.995
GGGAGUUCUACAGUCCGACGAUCCUGUGCUACACAUCGUAUGUACCGAAUCGGGGUUUUUGGGGUUUUUUUGGGGAAAAAGGGGAAAGUAUUAUGUUACGCCGUUCGGAUCUGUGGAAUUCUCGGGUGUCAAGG | -0.02
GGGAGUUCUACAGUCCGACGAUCUGGCCCUGGUGGCAUGCGGGGAGGAAGAGGUGGCCUCAUGGAUCGUGGUGGUCCCAGUGGAAUGUUCAGAGGUGGCCGUGGUGGAGACAGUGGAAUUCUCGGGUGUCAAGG | -0.142
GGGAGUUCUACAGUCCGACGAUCGCAGGAAGUAAAAACAAAUGGAUAUGCUUCGGAUAGUGGCAGGGGUGGGGGUUGCUAAGGAAAGGGUGGGAUGGGAGUGGGUAAAGAGUUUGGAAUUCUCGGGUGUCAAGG | 1.81
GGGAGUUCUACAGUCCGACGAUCUAACUUUAGAGGAGGAUCUGAUCGAUAUGGCAGUGGACGUGGAUUUGGGGAUGGCUAUAAUGGGUAUGGAGGAGGACCUGGAGGUGGCAAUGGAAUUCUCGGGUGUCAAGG | 0.609
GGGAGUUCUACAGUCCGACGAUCUGGGAGGUGGAUUUUGUUUAUUUUUUUAGCUAAUUUCCAGGGGUGGGAAUUUUUUUUUAAUAUGUGUCAUGAAUAAAGUUGUUUUUGAAAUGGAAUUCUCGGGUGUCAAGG | 0.0391

Sample 6 — method: DHFR PCA, dose-response; sample: yeast; notes: Hill fit, mean, not affinity; together with: (+)-ABA, dose series; reading: lower = more sensitive
Target: ABI1, truncated, D143A, DHFR fusion (Arabidopsis thaliana, UniProt P49597)
Parent: PYL1, truncated, DHFR fusion (Arabidopsis thaliana, UniProt Q8VZS8); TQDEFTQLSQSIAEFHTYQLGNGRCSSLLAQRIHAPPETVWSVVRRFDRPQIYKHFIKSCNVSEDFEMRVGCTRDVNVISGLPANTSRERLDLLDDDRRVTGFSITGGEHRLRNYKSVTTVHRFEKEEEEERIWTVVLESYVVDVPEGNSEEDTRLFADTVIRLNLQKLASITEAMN
Change | ABA EC50 [µM]
R32Y | 3.53
H55T | 0.44
R88I | 1.53
S150P | 515
M68K | 33.5
S63T | 2.67
C72W | 24
E4Q | 2.5
T6L | 8.93
R32G | 21.1
E151S | 3.16
K58Y | 10.9
P36I | 44.7
N177F | 4.32
S26N | 8.21
L91C | 19.7
T154A | 16
H34Q | 4.01
Q51V | 95.3
E128S | 1.98
Q51E | 3.04
H55I | 0.32
T106W | 14.2
F56Y | 16
R69P | 150

Repeated from above (sample 2):
Strand | 6-mer enrichment (R)
AGUGGG | 1.35
GGAGAC | 0.957
UGUAUC | 0.959
GUAAAG | 0.948
CCUUGC | 1.1
ACUUCA | 0.826
GCCUCC | 1
CAAGGU | 0.897
AACUAC | 0.837
CCUCGA | 0.853
GUCCGA | 0.892
CCUCCG | 0.953
CAACCA | 0.856
